Experimental data of several laboratories.
Numbered parts are unrelated; each lists some results of a single study. Positions count from the first letter of the parent shown.

Set 1 — target: CCNE2, cyclin fold, Cln2 fusion (human); technique: yeast growth competition, sequencing; medium: yeast; notes: weak parent motif; relative to: not given; direction: higher = stronger binding
Starting sequence: RB1 docking peptide (human); PKPLKKLRFDIEG
Under “normalised enrichment score”, `PKPLKKLRFDIEM [G13M]` is recorded as 1.14.
`PWPLKKLRFDIEG [K2W]` — result for “normalised enrichment score”: 0.287.
For `PKILKKLRFDIEG [P3I]`, “normalised enrichment score” read 0.98.
`PMPLKKLRFDIEG [K2M]`: “normalised enrichment score” 0.746.
`PKPLKKLQFDIEG [R8Q]` — result for “normalised enrichment score”: -0.0573.
`PKMLKKLRFDIEG [P3M]` — result for “normalised enrichment score”: 0.695.
For `PKPLKKLRGDIEG [F9G]`, “normalised enrichment score” read 0.717.
`PKPLKKLRCDIEG [F9C]`: “normalised enrichment score” 0.374.
Under “normalised enrichment score”, `CKPLKKLRFDIEG [P1C]` is recorded as 1.85.
For `PKPLKKLRFWIEG [D10W]`, “normalised enrichment score” read 0.812.

Set 2 — technique: RNA Bind-n-Seq; form: RNA; medium: in vitro; tested at: 365 nM; relative to: no-protein control; direction: higher = stronger binding
Target: RNA binding protein fox-1 homolog 2, RRM domain, GST-SBP tag (RBFOX2, Homo sapiens, UniProt O43251-10, residues 100-194)
Notes: natural RNA segment, single round, ends assumed
Shared flanks, not repeated: GGGAGUUCUACAGUCCGACGAUC … UGGAAUUCUCGGGUGCCAA
Target sequence (chain): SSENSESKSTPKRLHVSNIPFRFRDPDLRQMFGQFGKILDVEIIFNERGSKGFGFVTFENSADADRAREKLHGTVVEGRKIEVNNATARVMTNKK
`UUCAUUUAUAAUUUACAAAAGUAAAGCAUUUAUUAGUGUCUGAUUUAAGAAUGUAAAGUGAUUCUGUAUCAAUGUAAAUAAGAUGAUCUACUACAAAAGAUAUUUAAAAU`: “RBNS enrichment (R)” 0.734.
For `UGACAUUUGAUUUCCAGUGUAUUUAAAUUACUCCGUGGUAAAUUUCAUUGUCUUUUCCUGUGUAAAUGUUAAAUGACAAUACCAUCGGUGAAGGCCCUCCACAGUGGACA`, “RBNS enrichment (R)” read 0.398.
For `CAAGCUAUGCCAAGGUCAGAGCCACGGGCAUCUAGAAGGCAUCCACUCUGCUCAAGAGACGGAUGCACUCCUGCGCCCCGGUCUUCGGCCUGGACCCCACACGUUCAUAG`, “RBNS enrichment (R)” read 0.279.
For `CCUUUGCUUUCACACAGCAUAGCUUAUAAUUUGAUUAUGUUUCCUUCUUCAUGGGAAAUGUUAAAAGUUUAGCAUGUAACAUGUAAAUAUGUUGUACUUAAUGUUGAUCU`, “RBNS enrichment (R)” read 2.54.
`GUAUCUUGACCACCUGGCACCAUGCAUGGCCAGAGCUCAUGUCAUCUCCUGCCUCUGUCACCUCAGUGCAGGGAAACUAUGGCCCCUGUGGUCUUGCUGUCUCUCCCACU` — result for “RBNS enrichment (R)”: 1.07.
Under “RBNS enrichment (R)”, `CAGUAGGGACUCUGUGUGGGGGCUCCCACACCACAUUUCCCUUCUGCACUGCCCUAGCAGAGGUUCUCUCCCCUGCCGCUGAGAGGGCCUCUCCCCUGCAGCAAACGUUU` is recorded as 0.322.
`AGGAAUUUCCUGAGUUUGCAGGAGACAUGAGAGCAGUUUUUAGCGAGUAUUUUAGUGGGAAGUUGCCAACUUUUUAAGAAUGAGCAGUUGACAAGGGCCAGAGCCUGUCC`: “RBNS enrichment (R)” 2.
Under “RBNS enrichment (R)”, `UGCUCAGCCCUUCCUAGAAGAGUCAGGAAGGGAAAGCCAGAAGGGGCACGCCUGCCCAGCCUCGCAUGCCAGAGCCUGGGGCAUCCCAGAGCCCAGGGCAUCCCAUGGGG` is recorded as 3.48.

Set 3 — technique: aptamer microarray, sandwich; form: DNA with 2'F-ANA; medium: in vitro; tested at: 200 nM; with: Cy3 exosite-II aptamer, 400 nM; direction: higher = stronger binding; strand: GGTTGGTGTGGTTGG
Target: Prothrombin, mature alpha-thrombin (F2, Homo sapiens, UniProt P00734)
Notes: whole 15-mer aptamer, many near background
For `2'F-ANA at 3 4 5 6 8 9 10 11 12 15`, “mean fluorescence intensity” read 72.8 a.u.
`2'F-ANA at 4 5 8 9 11 13`: “mean fluorescence intensity” 56.9 a.u.
`2'F-ANA at 1 4 9 10 11 15`: “mean fluorescence intensity” 50.4 a.u.
For `2'F-ANA at 2 6 8 9 10 11 15`, “mean fluorescence intensity” read 107 a.u.
`2'F-ANA at 3 4 6 8 9 10 11 14` — result for “mean fluorescence intensity”: 193 a.u.
For `2'F-ANA at 1 2 3 5 7 8 10 13 15`, “mean fluorescence intensity” read 67.8 a.u.
For `2'F-ANA at 2 3 6 8 9 10 11 12 14 15`, “mean fluorescence intensity” read 230 a.u.
`2'F-ANA at 1 4 5 9 13 15` — result for “mean fluorescence intensity”: 48.3 a.u.
`2'F-ANA at 1 2 3 5 7 8 9 10 13 15` — result for “mean fluorescence intensity”: 48.4 a.u.
`2'F-ANA at 2 3 4 5 6 8 10 11 13 14 15` — result for “mean fluorescence intensity”: 55.1 a.u.

Further values, each from its own experiment
The fold induction of `PhoQ, residues 284 288 289 292 302 303 GTAMQF` is reported as 29.8 (PhoP, residues 12 14 15 18 19 YHFSH (Escherichia coli, UniProt P23836); Sort-seq, measured: YFP reporter; E. coli; PhoQ-PhoP variant library, with: 10 µM Mg2+; relative to: high Mg2+ state, higher = stronger signaling).
